# Measurements of several laboratories.
# Each line is one published result; not all experiments were run side by side. Several values in a cell are separate wells, animals, samples, runs or records. ± gives the spread as reported.
SMILES,assay,system,setting,how to read,measurement,result
CC(C)C[C@H](NC(=O)CN)C(=O)NCC(=O)N[C@@H](CCCCN)C(=O)N[C@@H](CC(C)C)C(=O)N[C@@H](CC(C)C)C(=O)N[C@@H](Cc1c[nH]cn1)C(=O)N[C@@H](C)C(=O)N[C@@H](C)C(=O)N[C@@H](CCCCN)C(=O)N[C@@H](CCCCN)C(=O)N[C@@H](CC(C)C)C(=O)NCC(=O)N[C@@H](CCCCN)C(=O)N[C@@H](C)C(=O)N[C@@H](Cc1c[nH]c2ccccc12)C(=O)N[C@@H](CC(C)C)C(=O)NCC(=O)N[C@@H](CCC(=O)O)C(=O)N[C@@H](CC(C)C)C(=O)N[C@@H](CC(C)C)C(=O)N[C@@H](C)C(=O)N[C@@H](C)C(=O)O,,POPC/POPG 1:1 vesicles,,reference: DPX over ANTS,DPX/ANTS release rate ratio,3
COc1ccc(-c2c(C#N)c(N)nc3c2CCc2nc4c(cc2-3)c(C)nn4-c2ccccc2)cc1,"DPPH scavenging, absorbance",,,,EC50,> 100 µg/mL
CC[C@H](C)[C@H](NC(=O)[C@H](Cc1c[nH]c2ccccc12)NC(=O)[C@H](CCCNC(=N)N)NC(=O)[C@H](CCCCN)NC(=O)[C@H](CC(C)C)NC(=O)[C@H](CC(=O)O)NC(=O)[C@H](Cc1ccccc1)NC(=O)[C@H](C)NC(=O)[C@H](Cc1ccc(O)cc1)NC(=O)[C@H](CC(N)=O)NC(=O)[C@H](Cc1ccc(O)cc1)NC(=O)[C@H](CCCNC(=N)N)NC(=O)[C@H](Cc1ccc(O)cc1)NC(=O)[C@H](Cc1ccc(O)cc1)NC(=O)[C@@H](NC(=O)[C@H](CC(C)C)NC(=O)[C@H](C)NC(=O)[C@H](CC(N)=O)NC(=O)[C@H](Cc1ccc(O)cc1)NC(C)=O)[C@@H](C)CC)C(=O)N[C@@H](Cc1ccc(O)cc1)C(=O)N[C@@H](CC(C)C)C(N)=O,item: HA-02 tetramer,"antigen-experienced tetramer+ CD4 T cells, healthy adults, HLA-DRB1*0101",dose not given,,α4β7− CCR9− cells,27.3%
CSCCNC(=O)CCC(C)C1CCC2C3C(O)CC4CC(O)CCC4(C)C3CCC12C (centres unmarked),,"wild type mice, faeces","dose not given, 14 days",reference: vehicle,faecal bile acids,increased
CC(C)C[C@@H]1NC(=O)[C@H](C(C)C)NC(=O)[C@H](CO)NC(=O)CNC(=O)CNC(=O)[C@H](CCCNC(=N)N)NC(=O)[C@@H]2CCCN2C(=O)[C@@H](NC(=O)CC[C@H](NC(=O)c2ccc(N(C)Cc3cnc4nc(N)nc(N)c4n3)cc2)C(=O)O)C(C)(C)SSC[C@@H](C(=O)O)NC(=O)CNC(=O)[C@H]([C@@H](C)O)NC(=O)[C@H](C(C)C)NC1=O,,rat adjuvant arthritis,"iv, 5 mg/kg once daily, day 14","reference: arthritis vehicle, direction not given",bone resorption score reduction,71%
CCOP(=O)(OCC)OCCCCOC(=O)CC1=C(C)/C(=C/c2ccc([S+](C)[O-])cc2)c2ccc(F)cc21 (centres unmarked),,"rat, adjuvant-induced arthritis","topical, 50 mg/kg once daily, prevention protocol, PSH vehicle","reference: vehicle, direction not given",clinical score reduction,65% and 56%
CC[C@H](C)[C@H](NC(=O)[C@@H](NC(=O)[C@H](CC(=O)O)NC(C)=O)[C@@H](C)O)C(=O)N[C@@H](CCCNC(=N)N)C(=O)N[C@@H](CC(C)C)C(=O)N[C@@H](CC(C)C)C(=O)N[C@@H](Cc1ccccc1)C(=O)N[C@@H](CCC(N)=O)C(=O)N[C@@H](CC(C)C)C(=O)N[C@@H](CCSC)C(=O)N[C@@H](CCCNC(=N)N)C(=O)N1CCC[C@H]1C(=O)N1CCC[C@H]1C(=O)N[C@@H](CC(N)=O)C(=O)N[C@@H](CCSC)C(=O)N[C@H](C(=O)N1CCC[C@H]1C(=O)N[C@@H](C)C(=O)N[C@H](C(=O)N[C@@H](CC(N)=O)C(=O)N[C@@H](C)C(N)=O)C(C)C)[C@@H](C)O,item: HA-15 tetramer,"antigen-experienced tetramer+ CD4 T cells, healthy adults, HLA-DRB1*0101",dose not given,,α4β7+ CCR9− cells,63.6%
CS(C)(=O)=Nc1ccc(-c2ccc(-c3nc4cc(O[C@@H]5CO[C@H]6[C@@H]5OC[C@H]6O)[nH]c4cc3F)cc2)cc1,,"ob/ob mouse, AMLN diet NASH model","oral, 5 mg/kg daily, 8 weeks",reference: vehicle,hepatic triglycerides,decreased
CCOc1cncc(-c2ccc(NC(=O)C3(c4ccnc(NS(=O)(=O)C5CC5)n4)CCOCC3)nc2)n1,"enzyme activity, inhibitor, RapidFire mass spectrometry",dog,,reference: CTPS1 over CTPS2,selectivity ratio,840
COC[C@@H](NC(C)=O)C(=O)NCc1ccc(OCc2cccc(Cl)c2)cc1,"formalin test, phase II",mouse,"ip, 5.0 mg/kg",reference: vehicle,licking time,72%
Cc1cc(O)cc(C)c1CC(N)C(=O)NC1CCNc2c(CN3CCOCC3)cc(Cc3ccccc3)cc21 (centres unmarked),warm water tail withdrawal,male C57BL/6 mice,"intraperitoneal, 10 mg/kg",,antinociception,inactive
COc1cc(C(Oc2ccc(C[C@H](N)C(=O)N[C@H](C)C(=O)NCC(=O)N(C)[C@@H](Cc3ccccc3)C(=O)NCCO)cc2)C(=O)O)c([N+](=O)[O-])cc1OC (some centres unmarked),"inhibitory synaptic transmission, whole-cell voltage clamp",mouse hippocampal slices CA1,"1 µM, added: UV uncaging plus CTAP 1 µM",,IPSC suppression fraction,-0.05 ± 0.1
CC[C@H](C)[C@H](NC(=O)[C@H](C)NC(=O)CNC(=O)[C@@H](N)CCSC)C(=O)N[C@@H](C)C(=O)N[C@@H](CCCCN)C(=O)N[C@@H](CC(C)C)C(=O)N[C@H](C(=O)N[C@@H](C)C(=O)N[C@@H](CCCCN)C(=O)N[C@@H](Cc1ccccc1)C(=O)NCC(=O)N[C@@H](Cc1c[nH]c2ccccc12)C(=O)N1CCC[C@H]1C(=O)N[C@@H](Cc1ccccc1)C(=O)N[C@H](C(=O)N[C@@H](CCCCN)C(=O)N[C@@H](CCCCN)C(=O)N[C@@H](Cc1ccccc1)C(=O)N[C@@H](Cc1ccc(O)cc1)C(=O)N[C@@H](CCCCN)C(=O)N[C@@H](CCC(N)=O)C(=O)N[C@H](C(=O)N[C@@H](CCSC)C(=O)N[C@@H](CCC(N)=O)C(=O)N[C@@H](CCCNC(=N)N)C(=O)N[C@H](C(=O)NCC(=O)N[C@@H](CCC(N)=O)C(=O)NCC(=O)N[C@@H](Cc1c[nH]c2ccccc12)C(=O)N[C@H](C(=O)N[C@H](C(=O)N[C@@H](CC(=O)O)C(=O)N[C@@H](CCC(N)=O)C(=O)N[C@H](C(=O)N[C@@H](CCC(=O)O)C(=O)N[C@@H](CCCCN)C(=O)N[C@@H](Cc1c[nH]c2ccccc12)C(=O)N[C@@H](CC(C)C)C(=O)N[C@@H](CCCCN)C(=O)N[C@@H](CCCNC(=N)N)C(=O)N[C@@H](Cc1c[nH]cn1)C(=O)O)[C@@H](C)CC)[C@@H](C)CC)[C@@H](C)O)[C@@H](C)CC)[C@@H](C)CC)[C@@H](C)CC)C(C)C,,PG/PE 1:1 liposomes,MIC,reference: Triton X-100,calcein release,26.1 ± 1.5%
CC[C@H](C)[C@H](NC(=O)[C@H](CCCNC(=N)N)NC(=O)[C@H](CCC(N)=O)NC(=O)[C@H](CC(=O)O)NC(=O)[C@H](CC(C)C)NC(=O)[C@H](CC(C)C)NC(=O)[C@H](CC(N)=O)NC(=O)[C@H](Cc1ccccc1)NC(=O)[C@H](CC(=O)O)NC(=O)[C@@H](NC(=O)[C@@H](NC(=O)[C@H](CC(N)=O)NC(=O)CNC(=O)[C@H](CO)NC(C)=O)C(C)C)[C@@H](C)CC)C(=O)N[C@H](C(=O)N[C@@H](Cc1c[nH]c2ccccc12)C(=O)N[C@@H](CCC(N)=O)C(=O)N[C@@H](CC(N)=O)C(=O)N[C@@H](Cc1c[nH]c2ccccc12)C(=O)N[C@@H](Cc1ccc(O)cc1)C(=O)N[C@@H](C)C(N)=O)[C@@H](C)CC,item: HA-02 tetramer,"antigen-experienced tetramer+ CD4 T cells, healthy adults, HLA-DRB1*0101",dose not given,,α4β7− CCR9+ cells,0%
Cc1ccc(/C=C/C(=O)O)cc1-c1cc2c(cc1C)C(C)(C)CCC2(C)C,"RNA sequencing, item: Sfrp5","rat, brain","dose not given, 24 h",reference: vehicle,log2 fold change,-0.3
COC[C@@H](NC(C)=O)C(=O)NCc1ccc(OCc2cccc(F)c2)cc1,"formalin test, phase II",mouse,"ip, 9.0 mg/kg",reference: vehicle,licking time,63%
C[C@@H](O)[C@H](NC(=O)[C@@H]1CSSC[C@H](NC(=O)[C@@H](Cc2ccccc2)NC(=O)CN2CCN(CC(N)=O)CCN(CC(N)=O)CCN(CC(N)=O)CC2)C(=O)N[C@@H](Cc2ccc(O)cc2)C(=O)N[C@H](Cc2c[nH]c3ccccc23)C(=O)N[C@@H](CCCCN)C(=O)N[C@@H]([C@@H](C)O)C(=O)N1)C(=O)O [lead-212 labelled],,"AR-42J tumour, mice","two x 5 µCi, three weeks apart",,median survival,7.1 weeks
C[C@]12CC[C@H](O)CC1CCC1C2[C@H](O)C(=O)[C@]2(C)[C@@H](c3ccc(=O)oc3)CC[C@]12O (some centres unmarked),"sulfation, substrate",rabbit liver cytosol,,,Vmax,0.1 ± 0.002 nmol/min/mg
Cc1cc(O)cc(C)c1CC(N)C(=O)NC1CCNc2c1cc(Cc1ccccc1)cc2C(F)(F)F (centres unmarked),warm water tail withdrawal,male C57BL/6 mice,"intraperitoneal, 10 mg/kg",,antinociception,inactive
CCN(Cc1ccccc1)C(=O)CCc1nc(CN2CCN(C(=O)Cc3ccc(OC)c(OC)c3)CC2)no1,current clamp,"L4-L6 DRG neurons, rat CCI model","3 µM, added: 500 pA current injection",,action potential amplitude,99 ± 1.3 mV
